Results collected from several papers.
Lines come from different studies, so protocols differ. Numbers after ± are the reported error.
UCHL1: Ubiquitin carboxyl-terminal hydrolase isozyme L1 (UCHL1, Homo sapiens, UniProt P09936)
Chain of UniProt P09936 (whole entry, looked up): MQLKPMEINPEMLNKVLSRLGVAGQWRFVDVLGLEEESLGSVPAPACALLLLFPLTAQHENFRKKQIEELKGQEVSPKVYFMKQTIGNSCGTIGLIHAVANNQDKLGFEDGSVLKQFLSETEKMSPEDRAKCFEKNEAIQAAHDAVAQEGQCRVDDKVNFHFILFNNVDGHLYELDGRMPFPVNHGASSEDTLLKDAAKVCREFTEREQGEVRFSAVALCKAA

| Structure (SMILES) | tested on | test | test system | setting | quantity | result |
| --- | --- | --- | --- | --- | --- | --- |
| C[C@H]1O[C@@H](O[C@H]2[C@@H](O)C[C@H](O[C@H]3[C@@H](O)C[C@H](O[C@H]4CC[C@@]5(C)[C@H](CC[C@@H]6[C@@H]5C[C@@H](O)[C@]5(C)[C@@H](C7=CC(=O)OC7)CC[C@]65O)C4)O[C@@H]3C)O[C@@H]2C)C[C@H](O)[C@@H]1O |  |  | human EpiIntestinal microtissues | 5 µM, 2 h | Papp (A to B) | 1.8 ± 0.3 ×10⁻⁶ cm/s |
| COc1cc2[nH]c(C)c(-c3ccc(O)cc3)c(=O)c2cc1Cl |  |  | PAMPA | pH 7.4 | Papp | 8 ×10⁻⁶ cm/s |
| c1ccc(-c2cccc(Nc3nccc(NC4CCCCC4)n3)c2)cc1 |  |  | MDCKII-WT cells | 10 µM, pH 7.4 | Papp (B to A) | 0.069 ± 0.008 ×10⁻⁶ cm/s |
| N#CC(=Cc1ccc(F)cc1)C(=O)Nc1ccc(C(=O)O)cc1 | UCHL1 | covalent, intact protein LC-MS |  | 12.5 µM | labelling | 34.7% |
| COc1cccc(-c2cccc(Nc3nccc(NC(C)C)n3)c2)c1 |  |  | MDCKII-WT cells | 10 µM, pH 7.4 | Papp (A to B) | 0.327 ± 0.119 ×10⁻⁶ cm/s |
| CC(C)C1OC1(C#N)C(N)=C(C#N)C#N (centres unmarked) | UCHL1 | covalent, intact protein LC-MS |  | 12.5 µM | labelling | 28% |
| CC(C)NCC(O)COc1cccc2ccccc12 (centres unmarked) |  |  | EpiIntestinal microtissues | 5 µM, 2 h, pH 6.5, basolateral pH 7.4 | Papp apical to basolateral | 12.1 ×10⁻⁶ cm/s |
| COc1cc2[nH]c(C)c(-c3ccc(Oc4ccccc4)cc3)c(=O)c2cc1Cl |  |  | PAMPA | pH 7.4 | Papp | 41 ×10⁻⁶ cm/s |
| C[C@@H]1O[C@@H](O[C@H]2[C@H](Oc3cc(O)c4c(c3)O[C@H](c3ccc(O)cc3)CC4=O)O[C@H](CO)[C@@H](O)[C@@H]2O)[C@H](O)[C@H](O)[C@H]1O |  |  | PBS receiver | 50 mg/mL, 60 min, pH 6.8 | Papp | 0.359 ± 1.1 ×10⁻⁶ cm/s |
| CC(C)Nc1ccnc(Nc2ccccc2-c2ccccc2)n1 |  |  | MDCKII-WT cells | 10 µM, pH 7.4 | Papp (B to A) | 12.1 ± 2.96 ×10⁻⁶ cm/s |
| COc1cc2[nH]c(C)c(-c3ccccc3C)c(=O)c2cc1Cl |  |  | PAMPA | pH 7.4 | Papp | 191 ×10⁻⁶ cm/s |

A few entries again:
| Structure (SMILES) | tested on | test | test system | setting | quantity | result |
| --- | --- | --- | --- | --- | --- | --- |
| COc1cc2[nH]c(C)c(-c3ccccc3C)c(=O)c2cc1Cl |  |  | PAMPA | pH 7.4 | Papp | 191 ×10⁻⁶ cm/s |
| C[C@@H]1O[C@@H](O[C@H]2[C@H](Oc3cc(O)c4c(c3)O[C@H](c3ccc(O)cc3)CC4=O)O[C@H](CO)[C@@H](O)[C@@H]2O)[C@H](O)[C@H](O)[C@H]1O |  |  | PBS receiver | 50 mg/mL, 60 min, pH 6.8 | Papp | 0.359 ± 1.1 ×10⁻⁶ cm/s |
